Assay results collected from several papers.
Lines come from different studies, so protocols differ. ± gives the spread as reported.

N=C(N)NCCC[C@@H]1NC(=O)[C@H](CCCCNC(=O)CC[C@H](NC(=O)CCOCCOCCOCCOCCNC(=O)CC[C@H](NC(=O)CN2CCN(CC(=O)O)CCN(CC(=O)O)CCN(CC(=O)O)CC2)C(=O)NCCOCCOCCOCCOCCC(=O)N[C@@H](CCC(=O)NCCCC[C@@H]2NC(=O)[C@@H](Cc3ccccc3)NC(=O)[C@H](CC(=O)O)NC(=O)CNC(=O)[C@H](CCCNC(=N)N)NC2=O)C(=O)NCCCC[C@@H]2NC(=O)[C@@H](Cc3ccccc3)NC(=O)[C@H](CC(=O)O)NC(=O)CNC(=O)[C@H](CCCNC(=N)N)NC2=O)C(=O)NCCCC[C@@H]2NC(=O)[C@@H](Cc3ccccc3)NC(=O)[C@H](CC(=O)O)NC(=O)CNC(=O)[C@H](CCCNC(=N)N)NC2=O)NC(=O)[C@@H](Cc2ccccc2)NC(=O)[C@H](CC(=O)O)NC(=O)CNC1=O [indium-111 labelled]
tissue uptake (female athymic nude mice, liver; intravenous, 3 µCi, 0.5 h, U-87 MG glioma xenograft): 2.13 ± 0.74 %ID/g

CCCC[C@H](NC(=O)CCCCCCCNC(=O)c1ccc(NN)nc1)C(=O)N[C@H]1CC(=O)NCCCC[C@@H](C(N)=O)NC(=O)[C@H](Cc2c[nH]c3ccccc23)NC(=O)[C@H](CCCNC(=N)N)NC(=O)[C@@H](Cc2ccccc2)NC(=O)[C@H](Cc2c[nH]cn2)NC1=O [technetium-99m labelled]
tissue uptake (C57 mouse, B16/F1 melanoma, lung; 2 h, with: NDP-MSH 10 µg (6.07 nmol) co-injected): 0.91 ± 0.06 %ID/g

C[C@@H](O)[C@H](NC(=O)[C@@H]1CSSC[C@H](NC(=O)[C@@H](Cc2ccccc2)NC(=O)CN2CCCN3CCN(CCCN(CP(=O)(O)O)CC3)CC2)C(=O)N[C@@H](Cc2ccc(O)cc2)C(=O)N[C@H](Cc2c[nH]c3ccccc23)C(=O)N[C@@H](CCCCN)C(=O)N[C@@H]([C@@H](C)O)C(=O)N1)C(=O)O [copper-64 labelled]
tissue uptake (Lewis rat, male, tumour-bearing, pancreas; injection, 4 h, with: Y3-TATE 200 µg co-injected): 0.6 ± 0.04 %ID/g

CCCC[C@H](NC(=O)COCCOCCNC(=O)c1ccc(NN)nc1)C(=O)N[C@H]1CC(=O)NCCCC[C@@H](C(N)=O)NC(=O)[C@H](Cc2c[nH]c3ccccc23)NC(=O)[C@H](CCCNC(=N)N)NC(=O)[C@@H](Cc2ccccc2)NC(=O)[C@H](Cc2c[nH]cn2)NC1=O [technetium-99m labelled]
tissue uptake (C57 mouse, female, B16/F1 melanoma, liver; intravenous, 0.037 MBq, 2 h): 0.33 ± 0.03 %ID/g

CSCC[C@H](NC(=O)[C@H](CC(C)C)NC(=O)[C@H](Cc1c[nH]cn1)NC(=O)CNC(=O)[C@@H](NC(=O)[C@H](C)NC(=O)[C@H](Cc1c[nH]c2ccccc12)NC(=O)[C@H](CCC(N)=O)NC(=O)CCCCCCCNC(=O)CCC(=O)Nc1ccc(CNC23CNCCNCC(N)(CNCCNC2)CNCCNC3)cc1)C(C)C)C(N)=O [copper-64 labelled]
tissue uptake (female SCID mice, PC-3 xenograft, pancreas; intravenous, 1 h, with: 100 µg Tyr4-bombesin blocking): 3.2 ± 0.2 %ID/g

N=C(N)NCCC[C@@H]1NC(=O)[C@H](CCCCNC(=O)CC[C@H](NC(=O)CCOCCOCCOCCOCCNC(=O)CN2CCN(CC(=O)O)CCN(CC(=O)O)CCN(CC(=O)O)CC2)C(=O)NCCCC[C@@H]2NC(=O)[C@@H](Cc3ccccc3)NC(=O)[C@H](CC(=O)O)NC(=O)CNC(=O)[C@H](CCCNC(=N)N)NC2=O)NC(=O)[C@@H](Cc2ccccc2)NC(=O)[C@H](CC(=O)O)NC(=O)CNC1=O [indium-111 labelled]
tissue uptake (female athymic nude mice, lungs; intravenous, 3 µCi, 4 h, U-87 MG glioma xenograft): 1.52 ± 0.75 %ID/g

CCCC[C@H](NC(=O)CNC(=O)CNC(=O)c1ccc(NN)nc1)C(=O)N[C@H]1CC(=O)NCCCC[C@@H](C(N)=O)NC(=O)[C@H](Cc2c[nH]c3ccccc23)NC(=O)[C@H](CCCNC(=N)N)NC(=O)[C@@H](Cc2ccccc2)NC(=O)[C@H](Cc2c[nH]cn2)NC1=O [technetium-99m labelled]
tissue uptake (C57 mouse, B16/F1 melanoma-bearing, stomach; intravenous, 24 h): 0.06 ± 0.03 %ID/g

N=C(N)NCCC[C@@H]1NC(=O)[C@H](CCCCNC(=O)CNC(=O)CNC(=O)CNC(=O)CC[C@H](NC(=O)CCOCCOCCOCCOCCNC(=O)CC[C@H](NC(=O)CN2CCN(CC(=O)O)CCN(CC(=O)O)CCN(CC(=O)O)CC2)C(=O)NCCOCCOCCOCCOCCC(=O)N[C@@H](CCC(=O)NCC(=O)NCC(=O)NCC(=O)NCCCC[C@@H]2NC(=O)[C@@H](Cc3ccccc3)NC(=O)[C@H](CC(=O)O)NC(=O)CNC(=O)[C@H](CCCNC(=N)N)NC2=O)C(=O)NCC(=O)NCC(=O)NCC(=O)NCCCC[C@@H]2NC(=O)[C@@H](Cc3ccccc3)NC(=O)[C@H](CC(=O)O)NC(=O)CNC(=O)[C@H](CCCNC(=N)N)NC2=O)C(=O)NCC(=O)NCC(=O)NCC(=O)NCCCC[C@@H]2NC(=O)[C@@H](Cc3ccccc3)NC(=O)[C@H](CC(=O)O)NC(=O)CNC(=O)[C@H](CCCNC(=N)N)NC2=O)NC(=O)[C@@H](Cc2ccccc2)NC(=O)[C@H](CC(=O)O)NC(=O)CNC1=O [indium-111 labelled]
tissue uptake (female athymic nude mice, heart; intravenous, 3 µCi, 1 h, U-87 MG glioma xenograft): 0.61 ± 0.04 %ID/g

CSCC[C@H](NC(=O)[C@H](CC(C)C)NC(=O)[C@H](Cc1c[nH]cn1)NC(=O)CNC(=O)[C@@H](NC(=O)[C@H](C)NC(=O)[C@H](Cc1c[nH]c2ccccc12)NC(=O)[C@H](CCC(N)=O)NC(=O)CCCCCNC(=O)CNC(=O)CNC(=O)CNC(=O)CSC(C)=O)C(C)C)C(N)=O [technetium-99m labelled]
tissue uptake (healthy Swiss mouse, small intestine, contents removed; intravenous, 18.5 MBq, 5 min): 12 ± 3.37 %ID/g

Repeated from above:
C[C@@H](O)[C@H](NC(=O)[C@@H]1CSSC[C@H](NC(=O)[C@@H](Cc2ccccc2)NC(=O)CN2CCCN3CCN(CCCN(CP(=O)(O)O)CC3)CC2)C(=O)N[C@@H](Cc2ccc(O)cc2)C(=O)N[C@H](Cc2c[nH]c3ccccc23)C(=O)N[C@@H](CCCCN)C(=O)N[C@@H]([C@@H](C)O)C(=O)N1)C(=O)O [copper-64 labelled]
tissue uptake (Lewis rat, male, tumour-bearing, pancreas; injection, 4 h, with: Y3-TATE 200 µg co-injected): 0.6 ± 0.04 %ID/g
